Measured values gathered from unrelated publications.
Lines come from different studies, so protocols differ. ± marks the error that the study gave.
Cell line: A549

| Structure (SMILES) | assay | conditions | IC50 |
| --- | --- | --- | --- |
| C=CC1=C(C)c2cc3[nH]c(cc4nc(cc5[nH]c(cc1n2)c(C)c5CCC(=O)O)C(CCC(=O)O)=C4C)c(C)c3C=C | cell growth or viability, resazurin | dark | > 100 µM |
| CC(=NN=C(N)[S-])C(C)=NN=C(N)[S-].N.N.O=[N+]([O-])[O-].[Co+3] | cell viability, MTT | 24 h then 48 h recovery, normoxia | > 500 µM |
| O=C(Cn1cc(COc2ncnc3[nH]cnc23)nn1)Nc1ccc([N+](=O)[O-])cc1 | cell growth or viability, MTT | – | > 100 µM |
| O=[N+]([O-])c1ccc(-n2nc(-c3cccs3)sc2=NN=C2CCCc3ccccc32)cc1 | cell growth or viability | – | 48.1 µM |
| CCOC(=O)c1ccc2c(c1)n(CC)c[n+]2CC | cell growth or viability, crystal violet | 72 h | 50.8 µM |
| CC(=O)[O][Pt]([NH2])([Cl])([Cl])([NH]C1CCCCC1)[O]C(C)=O | cell viability, MTT | 96 h | 6.4 ± 0.4 µM |
| COc1ccc(/C=C/c2nc3ccc([N+](=O)[O-])cc3nc2/C=C/c2ccc(OC)cc2)cc1 | cell growth or viability, MTT | 72 h | > 100 µM |
| O=[N+]([O-])c1ccc(-n2nc(-c3cccs3)sc2=NN=Cc2cn(-c3ccccc3)nc2-c2ccccc2)cc1 | cell growth or viability | – | 30.6 µM |
| CC(C(=O)[O-])C(=O)[O-].CC(C(=O)[O-])C(=O)[O-].NCCN.[Pt+4] | cell viability, MTT | 96 h | > 200 µM |
| COc1cc2ncnc(Nc3ccc(Cl)cc3F)c2cc1OC | cell growth or viability, resazurin | 5 days | > 10 µM |
| CCC(O)CC(=O)O[C@@H]1C[C@@H]2[C@@]3(C)CCC[C@](C)(CC)[C@@H]3CC[C@@]2(C)[C@@H]2C[C@@H](O)C3=C(C(=O)O[C@H]3C)[C@@]12C (some centres unmarked) | cell growth or viability, CCK-8 | 24 h | ≤ 25 µM |
| Cc1cc(C)c(C2CN(C)C3(C(=O)Nc4ccccc43)C2C(=O)c2ccc(Cl)cc2)c(C)c1 (centres unmarked) | cell growth or viability, MTT | 24 h | > 100 µM |
| C/C(=N/NC(=O)c1cn(-c2ccccc2)nc1-c1ccccc1)c1c(O)cc(C)oc1=O | cell growth or viability, MTT | 48 h | 146 µM |
| CCOC(=O)c1[nH]c(N)nc1-c1cccc(NC(=O)c2cc3cc(OC)ccc3[nH]2)c1 | cell growth or viability, resazurin | 72 h | 27.6 µM |
| O=[N+]([O-])c1cccc(/C=C/c2nc3ccc([N+](=O)[O-])cc3nc2/C=C/c2cccc([N+](=O)[O-])c2)c1 | cell growth or viability, MTT | 72 h | > 100 µM |
| Cc1ccc(NC(=O)c2ccc3c(c2)CC[C@@H]3N2CCN(C)CC2)cc1C#Cc1cnc2ccc(Cl)nn12 | cell growth or viability | 72 h | 1 to 10 µM |
| Cc1cc(C)c(C2CN(C)C3(C(=O)Nc4ccccc43)C2C(=O)c2cccc(Cl)c2)c(C)c1 (centres unmarked) | cell growth or viability, MTT | 48 h | > 100 µM |
| CC(C=NN=C(N)[S-])=NN=C(N)[S-].NCc1ccccc1.NCc1ccccc1.O=[N+]([O-])[O-].[Co+3] | cell viability, MTT | 24 h then 48 h recovery, normoxia | ~7.1 µM |
| Cn1nnc2c(C(N)=O)ncn2c1=O | cell proliferation, MTS | 72 h, with: 10 µM HNL | 79.4 µM |
| Cc1cncc(NC(=O)Cn2cc(COc3ncnc4[nH]cnc34)nn2)c1 | cell growth or viability, MTT | – | 5.2 µM |
| Cc1cc(C)c(C2C3CCCN3C3(C(=O)Nc4ccccc43)C2C(=O)c2cccc(Cl)c2)c(C)c1 (centres unmarked) | cell growth or viability, MTT | 24 h | 16.9 µM |

| Structure (SMILES) | assay | conditions | IC50 |
| --- | --- | --- | --- |
| Nc1nc(-c2cc(NC(=O)c3cc4cc(Br)ccc4[nH]3)ccc2Cl)c(C(=O)c2ccccc2)[nH]1 | cell growth or viability, resazurin | 72 h | 20.3 µM |
| Brc1ccc(/C=C/c2nc3ccc(Br)cc3nc2/C=C/c2ccc(Br)cc2)cc1 | cell growth or viability, MTT | 72 h | > 100 µM |
| C=CCc1ccc(O)c(-c2ccc(O)c(CC=C)c2)c1 | cell proliferation, MTS | 72 h, with: temozolomide 250 µM | 79.4 µM |
| Cc1cccc(C(=O)C2C(c3c(C)cc(C)cc3C)CN(C)C23C(=O)Nc2ccccc23)c1 (centres unmarked) | cell growth or viability, MTT | 24 h | 9.4 µM |
| COc1ccc(CNC(=O)Cn2cc(COc3ncnc4[nH]cnc34)nn2)cc1 | cell growth or viability, MTT | – | 14.2 µM |
| Brc1ccc2nc(/C=C/c3cccs3)c(/C=C/c3cccs3)nc2c1 | cell growth or viability, MTT | 72 h | 12 µM |
| Cc1cc(C)c(C2C3CCCN3C3(C(=O)Nc4ccccc43)C2C(=O)c2ccc(F)cc2)c(C)c1 (centres unmarked) | cell growth or viability, MTT | 24 h | 64.4 µM |
| N.N.O=C([O-])C1(C(=O)[O-])CCC1.[Pt+2] | cell viability, MTT | 4 h, with: cimetidine 3 mmol/L | 164 ± 16.5 µM |
| CC(=NNC(N)=S)C(C)=NNC(N)=S | cell viability, MTT | 24 h then 48 h recovery, normoxia | 16.4 ± 0.87 µM |
| CCOC(=O)c1[nH]c(N)nc1-c1cccc(NC(=O)c2cc3ccccc3[nH]2)c1 | cell growth or viability, resazurin | 72 h | 34.6 µM |
| Cc1ccc(C(=O)C2C(c3c(C)cc(C)cc3C)CN(C)C23C(=O)Nc2ccccc23)cc1 (centres unmarked) | cell growth or viability, MTT | 48 h | 5.5 µM |
| O=c1[nH]cc(F)c(=O)[nH]1 | cell growth or viability, MTT | 72 h | 4.89 µM |
| Nc1nc(-c2cc(Cl)cc(NC(=O)c3cc4cc(Br)ccc4[nH]3)c2)c(C(=O)c2ccccc2)[nH]1 | cell growth or viability, resazurin | 72 h | 17.8 µM |
| Cc1cc(C)c(C2CN(C)C3(C(=O)Nc4ccccc43)C2C(=O)c2ccc(F)cc2)c(C)c1 (centres unmarked) | cell growth or viability, MTT | – | < 10 µM |
| O=[N+]([O-])c1ccc(/C=C/c2nc3ccc(Br)cc3nc2/C=C/c2ccc([N+](=O)[O-])cc2)cc1 | cell growth or viability, MTT | 72 h | > 100 µM |
| CN1CCC2(CC1)C/C(=N\N=C\c1ccc(N(C)C)cc1)c1ccccc1O2 | cell growth or viability, MTT | 48 h | 42.5 µM |
| Fc1ccc(/C=C/c2nc3ccc(Br)cc3nc2/C=C/c2ccc(F)cc2)cc1 | cell growth or viability, MTT | 72 h | > 100 µM |
| Cc1ccc(C(=O)C2C(c3c(C)cc(C)cc3C)C3CCCN3C23C(=O)Nc2ccccc23)cc1 (centres unmarked) | cell growth or viability, MTT | 24 h | 15.7 µM |
| COc1ccccc1/C=C/c1nc2ccc([N+](=O)[O-])cc2nc1/C=C/c1ccccc1OC | cell growth or viability, MTT | 72 h | > 100 µM |
| CN1CCC2(CC1)C/C(=N\N=C\c1ccc(O)cc1)c1ccccc1O2 | cell growth or viability, MTT | 48 h | 23.2 µM |
